Measured values of several laboratories.
Lines come from different studies, so protocols differ. Several values in a cell are separate wells, animals, samples, runs or records. ± gives the spread as reported.
MAPK8: Mitogen-activated protein kinase 8 (MAPK8, Homo sapiens, UniProt P45983)

C[C@@H]1C[C@H](Nc2ccccc2)c2cc(F)ccc2N1C(=O)c1ccc(C#N)c(F)c1  pIC50 Z-score (Ecdysone receptor (Aedes albopictus, UniProt Q9U3Y4); ligand binding, inhibitor; intact cells; added: [3H]ponasterone A; direction not given): 2.26
CC(C)Oc1cc(Cl)ccc1CNc1cc(-c2ccccc2)nc2ncnn12  cAMP luminescence (GPR3 (Homo sapiens, UniProt P46089, Q215A); cAMP level, cAMP GloSensor; 10 nM; higher = more cAMP): 39500 a.u. and 34400 a.u. and 39000 a.u. and 39800 a.u. and 44800 a.u.
N=C(N)NCCC[C@H](NC(=O)[C@@H]1CCCN1C(=O)[C@H](CCCNC(=N)N)NC(=O)[C@@H]1CCCN1C(=O)[C@H](CCCNC(=N)N)NC(=O)[C@@H]1CCCN1C(=O)[C@H](CCCNC(=N)N)NC(=O)[C@@H]1CCCN1C(=O)[C@H](CCCNC(=N)N)NC(=O)[C@@H]1CCCN1C(=O)[C@H](CCCNC(=N)N)NC(=O)[C@@H]1CCCN1C(=O)[C@H](CCCNC(=N)N)NC(=O)[C@@H]1CCCN1C(=O)[C@H](CCCNC(=N)N)NC(=O)[C@@H]1CCCN1C(=O)[C@H](CCCNC(=N)N)NC(=O)[C@@H]1CCCN1C(=O)[C@H](CCCNC(=N)N)NC(=O)[C@@H]1CCCN1C(=O)[C@H](CCCNC(=N)N)NC(=O)[C@@H]1CCCN1C(=O)[C@H](CCCNC(=N)N)NC(=O)[C@@H]1CCCN1C(=O)[C@H](CCCNC(=N)N)NC(=O)[C@@H]1CCCN1C(=O)[C@H](CCCNC(=N)N)NC(=O)[C@@H]1CCCN1C(=O)[C@H](CCCNC(=N)N)NC(=O)[C@@H]1CCCN1C(=O)[C@H](CCCNC(=N)N)NC(=O)[C@@H]1CCCN1C(=O)[C@H](CCCNC(=N)N)NC(=O)[C@@H]1CCCN1C(=O)[C@H](CCCNC(=N)N)NC(=O)[C@@H]1CCCN1C(=O)[C@H](CCCNC(=N)N)NC(=O)[C@@H]1CCCN1C(=O)[C@H](CCCNC(=N)N)NC(=O)[C@@H]1CCCN1C(=O)[C@H](CCCNC(=N)N)NC(=O)[C@@H]1CCCN1C(=O)[C@H](CCCNC(=N)N)NC(=O)[C@@H]1CCCN1C(=O)[C@H](CCCNC(=N)N)NC(=O)[C@@H]1CCCN1C(=O)[C@H](Cc1ccc(O)cc1)NC(=O)[C@H](CO)NC(=O)CN)C(=O)O  maximum particle dimension (Nucleophosmin (NPM1, Homo sapiens, UniProt P06748); SANS; 2 molar excess over NPM1, 25 °C): 299 Å
C[Si](C)(C)C[C@@H](CN)CC(=O)O  inhibition (DRD2 (Homo sapiens, UniProt P14416); binding, radioligand binding; 75 µM, added: [3H]spiperone): -6%
CCC1(CC)C(=O)N(c2cccc(C(=O)N3CCN(Cc4ccc(Br)cc4)CC3)c2)C1=O  activity vs control (Dipeptidyl peptidase 8 (Homo sapiens, UniProt Q6V1X1); enzyme activity, inhibitor; 5 µM): < 5%
CN(C)c1ccc(-n2cc(COC(=O)[C@]3(C)C=C(C(=O)OC(C)(C)C)C(=O)CC3)nn2)cc1  fraction bound (MAPK8; D-peptide binding, inhibitor, FP peptide displacement; 1.562 µM; lower is stronger displacement): 0.912
CC(C)[C@@H]1NC(=O)[C@H](Cc2ccccc2)NC(=O)CSC[C@@H](C(N)=O)NC(=O)[C@H](CCC(=O)O)NC(=O)[C@H](CO)NC(=O)[C@H](Cc2c[nH]c3cccc(Cl)c23)NC(=O)[C@H](C2CCCCC2)NC(=O)[C@H](C(C)C)NC(=O)[C@H](Cc2ccc(O)cc2)NC(=O)[C@H](CC(=O)O)NC(=O)[C@H](Cc2c[nH]c3ccccc23)NC(=O)[C@H](Cc2ccc(N)nc2)NC(=O)[C@H](Cc2c[nH]c3ccc(Cl)cc23)NC(=O)[C@H](CCC(=O)O)NC1=O  remaining activity (Interleukin-1 receptor-like 2 (IL1RL2, Homo sapiens, UniProt Q9HB29); reporter gene (SEAP), inhibitor, HEK-Blue IL-36R reporter; HEK-Blue IL-36R cells; 0.0017 µM, 6 h, added: IL-36γ 10 ng/mL): 98.8%
COc1ccccc1-c1ccncc1C(=O)Nc1nnc(OCc2ccc(Cl)cc2)s1  remaining activity (Bifunctional 3'-5' exonuclease/ATP-dependent helicase WRN, residues 500-946 (WRN, Homo sapiens, UniProt Q14191); ATPase activity, ADP-Glo; 0.95 µM; relative to: 0 µM cpd): 98%
O=C1c2sc(-c3ccc(N4CCC(CO)CC4)nc3F)nc2CCN1c1cccnc1  inhibition (BDKRB2 (Homo sapiens, UniProt P30411); ligand displacement, radioligand; 1 µM): 5%
CCCCCCCC/C=C\CCCCCCCC(=O)OCC(O)COP(=O)(O)O (stereo not shown)  fold change (LPAR1 (Homo sapiens, UniProt Q92633); G-protein dissociation, agonist, NanoBiT; HEK-293T; 10 nM, wild-type receptor; relative to: baseline luminescence): 0.836 and 0.839 and 0.845 and 0.874 and 0.86 and 0.838
COC(=O)[C@@]1(C)C=C(C(=O)OC(C)(C)C)C(=O)CC1  fraction bound (MAPK8; D-peptide binding, inhibitor, FP peptide displacement; 62.5 µM; lower is stronger displacement): 0.652
CC(=O)N[C@H]1[C@H]([C@H](O)[C@H](O)CNC(=O)c2ccc(-c3ccccc3)cc2)O[C@@](OCc2cccc(Cl)c2Cl)(C(=O)O)C[C@@H]1O  ΔH (CD22 (Homo sapiens, UniProt P20273); isothermal titration calorimetry): -11.55 ± 0.06 kcal/mol
Fc1ccc(Nc2nc(NC3CCCCC3)c3cc(C(F)(F)F)ccc3n2)cc1F  maximal inhibition (ADRB2 (Homo sapiens, UniProt P07550, I159A); β-arrestin2 recruitment, antagonist, BRET; mutant I159A; relative to: isoprenaline maximal response): -0.1%
O=C(c1ccc([N+](=O)[O-])cc1)N1CCN(CC(OCc2ccc3ccccc3c2)c2ccc(Cl)cc2Cl)CC1 (stereo not shown)  activity vs control (ULK1 (Homo sapiens, UniProt O75385); enzyme activity, inhibitor, ADP detection; 0.1 µM): 114%
Cc1cc(C)cc(COc2cc3c(cc2OCc2cc(C)cc(C)c2)C2CC(O)(Cc4cn(CCOCCOCCNC(=O)CCCCC5SCC6NC(=O)NC65)nn4)CC(C)N2CC3)c1 (stereo not shown)  SILAC ratio (Proteasome activator complex subunit 2 (Homo sapiens, UniProt Q9UL46); biotinylated probe pull-down, measured: PSME2; 10 µM probe; relative to: heavy over light): 2.21
O=C(O)[C@@H]1O[C@@H](O[C@H]2[C@H](O)[C@H](O)[C@H](O[C@H]3[C@H](O)[C@H](O)[C@H](O[C@H]4[C@H](O)[C@H](O)[C@H](O)O[C@H]4C(=O)O)O[C@H]3C(=O)O)O[C@H]2C(=O)O)[C@@H](O)[C@@H](O)[C@@H]1O  binding stoichiometry (Beta-lactoglobulin (LGB, Bos taurus, UniProt P02754, A134V/G80D); isothermal titration calorimetry; concentration not given, pH 2.65, 37 °C, 50 mM KH2PO4; ligand per protein): 4.8
O=C(NS(=O)(=O)c1cccs1)c1cc2ccccc2n1Cc1ccc(Br)c2ccccc12  kon (SLC22A12 (Homo sapiens, UniProt Q96S37); binding, SPR): 3240 M⁻¹ s⁻¹
C=C1CC2(C(=O)OC)C=C(C(=O)OC(C)(C)C)C(=O)C1C2 (stereo not shown)  fraction bound (MAPK8; D-peptide binding, inhibitor, FP peptide displacement; 3.906 µM; lower is stronger displacement): 0.912
Nc1ncnc2c1ncn2C1OC(CN(CCCC2CNCc3c2ccc(Cl)c3Cl)CCC(N)C(=O)O)C(O)C1O (mixture of isomers)  −TΔS-1 (PNMT (Homo sapiens, UniProt P11086); ITC; first site, without SAH): -16.2 ± 0.1 kcal/mol
COc1cc(-c2cn(C)c(=O)c3cnccc23)cc(OC)c1CN(C)C  ΔTm (Bromodomain-containing protein 3, BD2 (BRD3, Homo sapiens, UniProt Q15059)): 0.3 °C
CC[C@H](C)[C@@H]1NC(=O)[C@H](Cc2c[nH]c3ccccc23)NC(=O)[C@H](Cc2ccccc2)N(C)C(=O)[C@H](C(C)C)NC(=O)[C@H](CC(C)C)NC(=O)[C@H](Cc2ccccc2)NC(=O)CSC[C@@H](C(=O)N[C@@H](CC(N)=O)C(N)=O)NC(=O)[C@H](Cc2ccccc2)NC1=O  ΔTm (STING1 (Homo sapiens, UniProt Q86WV6, H232R); thermal stability, DSF; 100 µM): 2.72 °C
Cc1cc(=O)oc2cc(NC(=O)CCCCCCC(=O)NO)ccc12  TΔS° (HDAC8 (Homo sapiens, UniProt Q9BY41); ITC; Tris-HCl buffer; 293 K): 2.98 kcal/mol
CN(Cc1cc(C2CC2)on1)C(=O)c1cccc(-c2ccc3c(c2)CCO3)c1  remaining activity (acetoacetyl-CoA synthetase (Cryptococcus neoformans); enzyme activity, inhibitor; 1.95 µM): 100%
CCCCCC=CC=C1C(=O)C=CC1CC=CCCCC(=O)O (stereo not shown)  isoTOP-ABPP competition ratio (Elongation factor 2, Cys41 (EEF2, Homo sapiens, UniProt P13639); competitive isoTOP-ABPP; proteome, soluble, MDA-MB-231; 100 µM, 60 min, added: iodoacetamide probe; relative to: DMSO over compound-treated, higher = stronger cysteine blockade): 2.6
Cc1cc(C)c(CNC(=O)c2c(C)n(C(C)C3CCC(NC4(C)COC4)CC3)c3ccccc23)c(=O)[nH]1 (stereo not shown)  residence time (EZH2 (Homo sapiens, UniProt Q15910); binding, TR-FRET; added: H3K27me3 activating peptide): 1020 min
CC(=O)N1c2ccc(-c3ccc(CNC(=O)c4cn5cc(-c6cnc(N)nc6)nc(N6CCOCC6)c5n4)cc3)cc2CC[C@@H]1C  remaining binding (Bromodomain-containing protein 2, BD1 (BRD2, Homo sapiens, UniProt P25440); binding, competition with immobilised ligand; 10 µM): 0.5%
Cc1cn(CC(=O)N(CCNC(=O)CN(CCNC(=O)CN(CCNC(=O)CN(CCNC(=O)CN(CCNC(=O)CN(CCNC(=O)CN(CCNC(=O)CN(CCN)C(=O)Cn2cnc3c(=O)[nH]c(N)nc32)C(=O)Cn2cnc3c(N)ncnc32)C(=O)Cn2cc(C)c(=O)[nH]c2=O)C(=O)Cn2cnc3c(=O)[nH]c(N)nc32)C(=O)Cn2cc(C)c(=O)[nH]c2=O)C(=O)Cn2cnc3c(=O)[nH]c(N)nc32)C(=O)Cn2cnc3c(N)ncnc32)CC(=O)NCCN(CC(=O)NCCOCCOCC(N)=O)C(=O)Cn2cnc3c(N)ncnc32)c(=O)[nH]c1=O  Tm (complementary RNA; duplex formation, UV melting curve fit; PBS; 1 µM, fit parameter α 0.5): 44.4 ± 0.1 °C
CCOC(=O)C(CC)(CCCSCCOCCOCCOCCN)NC(=O)c1ccc(C2CC2)c(Cc2ccc(F)cc2)n1 (stereo not shown)  Emax (Cnr2 (Mus musculus, UniProt P47936); cAMP, agonist): 93%

Repeated from above:
N=C(N)NCCC[C@H](NC(=O)[C@@H]1CCCN1C(=O)[C@H](CCCNC(=N)N)NC(=O)[C@@H]1CCCN1C(=O)[C@H](CCCNC(=N)N)NC(=O)[C@@H]1CCCN1C(=O)[C@H](CCCNC(=N)N)NC(=O)[C@@H]1CCCN1C(=O)[C@H](CCCNC(=N)N)NC(=O)[C@@H]1CCCN1C(=O)[C@H](CCCNC(=N)N)NC(=O)[C@@H]1CCCN1C(=O)[C@H](CCCNC(=N)N)NC(=O)[C@@H]1CCCN1C(=O)[C@H](CCCNC(=N)N)NC(=O)[C@@H]1CCCN1C(=O)[C@H](CCCNC(=N)N)NC(=O)[C@@H]1CCCN1C(=O)[C@H](CCCNC(=N)N)NC(=O)[C@@H]1CCCN1C(=O)[C@H](CCCNC(=N)N)NC(=O)[C@@H]1CCCN1C(=O)[C@H](CCCNC(=N)N)NC(=O)[C@@H]1CCCN1C(=O)[C@H](CCCNC(=N)N)NC(=O)[C@@H]1CCCN1C(=O)[C@H](CCCNC(=N)N)NC(=O)[C@@H]1CCCN1C(=O)[C@H](CCCNC(=N)N)NC(=O)[C@@H]1CCCN1C(=O)[C@H](CCCNC(=N)N)NC(=O)[C@@H]1CCCN1C(=O)[C@H](CCCNC(=N)N)NC(=O)[C@@H]1CCCN1C(=O)[C@H](CCCNC(=N)N)NC(=O)[C@@H]1CCCN1C(=O)[C@H](CCCNC(=N)N)NC(=O)[C@@H]1CCCN1C(=O)[C@H](CCCNC(=N)N)NC(=O)[C@@H]1CCCN1C(=O)[C@H](CCCNC(=N)N)NC(=O)[C@@H]1CCCN1C(=O)[C@H](CCCNC(=N)N)NC(=O)[C@@H]1CCCN1C(=O)[C@H](CCCNC(=N)N)NC(=O)[C@@H]1CCCN1C(=O)[C@H](Cc1ccc(O)cc1)NC(=O)[C@H](CO)NC(=O)CN)C(=O)O  maximum particle dimension (Nucleophosmin (NPM1, Homo sapiens, UniProt P06748); SANS; 2 molar excess over NPM1, 25 °C): 299 Å
Cc1cc(=O)oc2cc(NC(=O)CCCCCCC(=O)NO)ccc12  TΔS° (HDAC8 (Homo sapiens, UniProt Q9BY41); ITC; Tris-HCl buffer; 293 K): 2.98 kcal/mol
Cc1cn(CC(=O)N(CCNC(=O)CN(CCNC(=O)CN(CCNC(=O)CN(CCNC(=O)CN(CCNC(=O)CN(CCNC(=O)CN(CCNC(=O)CN(CCN)C(=O)Cn2cnc3c(=O)[nH]c(N)nc32)C(=O)Cn2cnc3c(N)ncnc32)C(=O)Cn2cc(C)c(=O)[nH]c2=O)C(=O)Cn2cnc3c(=O)[nH]c(N)nc32)C(=O)Cn2cc(C)c(=O)[nH]c2=O)C(=O)Cn2cnc3c(=O)[nH]c(N)nc32)C(=O)Cn2cnc3c(N)ncnc32)CC(=O)NCCN(CC(=O)NCCOCCOCC(N)=O)C(=O)Cn2cnc3c(N)ncnc32)c(=O)[nH]c1=O  Tm (complementary RNA; duplex formation, UV melting curve fit; PBS; 1 µM, fit parameter α 0.5): 44.4 ± 0.1 °C
C[Si](C)(C)C[C@@H](CN)CC(=O)O  inhibition (DRD2 (Homo sapiens, UniProt P14416); binding, radioligand binding; 75 µM, added: [3H]spiperone): -6%
CC(=O)N1c2ccc(-c3ccc(CNC(=O)c4cn5cc(-c6cnc(N)nc6)nc(N6CCOCC6)c5n4)cc3)cc2CC[C@@H]1C  remaining binding (Bromodomain-containing protein 2, BD1 (BRD2, Homo sapiens, UniProt P25440); binding, competition with immobilised ligand; 10 µM): 0.5%
